Assay results collected from several papers.
Protocols differ between the studies behind these lines. “And” joins repeats or separate records; there may be more than shown.
Si: Sucrase-isomaltase, intestinal (Si, Rattus norvegicus, UniProt P23739)
dxs: 1-deoxy-D-xylulose-5-phosphate synthase (dxs, Deinococcus radiodurans, UniProt Q9RUB5)
PARP3: Protein mono-ADP-ribosyltransferase PARP3 (PARP3, Homo sapiens, UniProt Q9Y6F1)
CDC25B: M-phase inducer phosphatase 2 (CDC25B, Homo sapiens, UniProt P30305)
Tumor necrosis factor receptor superfamily member 1A: Tumor necrosis factor receptor superfamily member 1A (Homo sapiens, UniProt P19438)
Ectonucleoside triphosphate diphosphohydrolase 1: Ectonucleoside triphosphate diphosphohydrolase 1 (Homo sapiens, UniProt P49961)
KDM1A: Lysine-specific histone demethylase 1A (KDM1A, Homo sapiens, UniProt O60341)

SMILES	target	assay	test system	setting	scale	inhibition
COc1cc(C(=O)O[C@@H]2Cc3c(O)cc(O)cc3O[C@@H]2c2ccc(O)c(O)c2)cc(O)c1O	Si	enzyme activity, inhibitor	rat intestinal brush border vesicles	10 µM		41.9%
CCCCCCCCCCCCCCCC(=O)N[C@@H](CCCCN)C(=O)N[C@@H](CCCCN)C(=O)N[C@@H](CO)C(=O)N[C@@H](CCCNC(=N)N)C(=O)N[C@@H](C)C(=O)N[C@@H](CC(C)C)C(=O)N[C@@H](Cc1ccccc1)C(N)=O	Proteinase-activated receptor 1 (F2R, Homo sapiens, UniProt P25116)	platelet aggregation, light transmittance aggregometry	human, platelet-rich plasma ex vivo	0.5 mg/kg, 24 h or discharge, added: SFLLRN 5 µM	baseline: baseline	61%
Cc1ncc(/C=N/NC(=O)c2cc3c(s2)CCCC3)cn1	dxs	enzyme activity, inhibitor		120 µM		31%
O=C(NO)C1=CCCC1	Histone deacetylase 8 (HDAC8, Homo sapiens, UniProt Q9BY41)	enzyme activity, inhibitor		100 µM		< 10%
O=C1NCCC(O)c2ccccc21 (stereo not drawn)	PARP3	enzyme activity, inhibitor		10 µM		69%
N#Cc1c(F)c(Cl)c2nc(SCc3ccc4ccccc4c3)nc(N)c2c1F	CDC25B	enzyme activity, inhibitor, fluorescence		20 µg/mL		94%
O=C(Nc1cccc(C(=O)Nc2ccc3[nH]ncc3c2)c1)Nc1cc(C(F)(F)F)ccc1F	NT-3 growth factor receptor (NTRK3, Homo sapiens, UniProt Q16288)	enzyme activity, inhibitor, FRET		1 µM		4.59%
O=[N+]([O-])c1cccc(S(=O)(=O)NC[C@@H](O)[C@@H]2CCc3cc(F)ccc3O2)c1	Prostaglandin G/H synthase 1 (PTGS1, Ovis aries, UniProt P05979)	enzyme activity, inhibitor, absorbance		200 µM		71.1%
COC(=O)Nc1ccc2c(c1)c(Cc1ccc(C(=O)NS(=O)(=O)c3ccc(C(F)(F)F)cc3)cc1OC)cn2C	Tumor necrosis factor receptor superfamily member 1A	NF-κB reporter gene, luciferase reporter	HEK293 cells	up to 250 nM, added: TNF 10 ng/mL		~63%
N#Cc1c(F)c(F)c2nc(SCC3CCCO3)nc(N)c2c1F (stereo not drawn)	CDC25B	enzyme activity, inhibitor, fluorescence		20 µg/mL		99.9%
COc1ccc(NC(=O)c2cccc(S(=O)(=O)NC3CC3)c2)cc1	Ectonucleoside triphosphate diphosphohydrolase 1	enzyme activity, inhibitor, absorbance		100 µM		34%
COc1cc(-c2nc(SCc3cn(CC(=O)NC(=O)Nc4ccccn4)nn3)nc(Nc3ccc(C)cc3)c2C#N)cc(OC)c1OC	KDM1A	enzyme activity, inhibitor, fluorescence		1 µM		89.2%
O=C(O[C@H]1Cc2c(O)cc(O)cc2O[C@@H]1c1ccc(O)cc1)c1cc(O)c(O)c(O)c1	Si	enzyme activity, inhibitor	rat intestinal brush border vesicles	10 µM		88.1%
O=C1N[C@@H](CO)C[C@H](O)c2ccccc21 (relative stereo)	PARP3	enzyme activity, inhibitor		10 µM		0%
COCCOCCSc1nc(N)c2c(F)c(F)c(C#N)c(F)c2n1	CDC25B	enzyme activity, inhibitor, fluorescence		20 µg/mL		63.4%
Cc1cc(C=O)cc(C)c1Oc1cc(Nc2ccc(C#N)cn2)nc2ccncc12	Gag-Pol polyprotein, reverse transcriptase (gag-pol, Human immunodeficiency virus type 1 group M subtype B, UniProt P04585)	enzyme activity, inhibitor, ELISA		1 µM		83.5%
COc1cc(C(=O)NS(=O)(=O)c2ccc(C(F)(F)F)cc2)ccc1Cc1cn(C)c2ccc(NC(=O)OC3CCCC3)cc12	Tumor necrosis factor receptor superfamily member 1A	NF-κB reporter gene, luciferase reporter	HEK293 cells	up to 250 nM, added: TNF 10 ng/mL		35 to 42%
C[C@@H](N)C1CCN(S(=O)(=O)c2cccc3c(=O)[nH]ccc23)CC1	Dual specificity protein kinase CLK1 (CLK1, Homo sapiens, UniProt P49759)	cell-free assay, competition with immobilised ligand		10 µM		> 95%
COCCOCCSc1nc(N)c2c(F)c(C#N)c(F)c(Cl)c2n1	CDC25B	enzyme activity, inhibitor, fluorescence		20 µg/mL		20.4%
CC1=C(/C=C/C(C)=C/C=C/C(C)=C/C=O)C(C)(C)CCC1	Cyclic nucleotide-gated channel alpha-1 (CNGA1, Bos taurus, UniProt Q00194)	cGMP-activated current, inhibitor, inside-out patch clamp		300 nM, added: saturating cGMP 2 mM		50.6%
Cn1cc(-c2ccc3ccccc3c2)c2ccc(Cl)nc21	Gag-Pol polyprotein, integrase (gag-pol, Human immunodeficiency virus type 1 group M subtype B, UniProt P04585)	enzyme activity, inhibitor		10 µM		55.8%
O=C(CS(=O)(=O)Cc1ccco1)C12CC3CC(CC(C3)C1)C2	11-beta-hydroxysteroid dehydrogenase type 2 (HSD11B2, Homo sapiens, UniProt P80365)		cells	10 µM		inactive
O=C(CCc1cccc(Cl)c1)c1nc2ccccc2[nH]1	Cathepsin K (CTSK, Homo sapiens, UniProt P43235)	enzyme activity		up to 100 µM, added: Z-Phe-Arg-AMC		inactive

SMILES	target	assay	test system	setting	scale	inhibition
C=CCSc1nc(N)c2c(F)c(C#N)c(F)c(Cl)c2n1	CDC25B	enzyme activity, inhibitor, fluorescence		20 µg/mL		98.8%
COc1cc(C(=O)NC2CCC(N3CCN(CC4CCC5(CCCC5)C4)CC3)CC2)c(F)cc1Nc1ncc2c(n1)N(C1CCCC1(F)F)CC(F)(F)C(=O)N2C (stereo not drawn)	Tyrosine-protein kinase receptor UFO (AXL, Homo sapiens, UniProt P30530)	cell-free assay, TR-FRET		10 µM		0.4%
Cc1ccc(NC(=O)c2cccc(S(=O)(=O)N3CCOCC3)c2)c(C)c1	Ectonucleoside triphosphate diphosphohydrolase 1	enzyme activity, inhibitor, absorbance		100 µM		26%
O=C(CCCOc1ccc(Cl)cc1Cl)N/N=C/c1ccc[nH]1	dxs	enzyme activity, inhibitor		120 µM		14%
COc1cc(S(=O)(=O)Nc2ccc(Nc3ccnc(N4CCCC4)n3)cc2)c(C)cc1C	Heat shock protein HSP 90-alpha, with Cdc37 (HSP90AA1, Homo sapiens, UniProt P07900)	Hsp90-Cdc37 interaction, HTRF		200 µM		> 50%
COc1cccc(CSc2nc(N)c3c(F)c(C#N)c(F)c(F)c3n2)c1	CDC25B	enzyme activity, inhibitor, fluorescence		20 µg/mL		83.3%
CC(C)(C)C(=O)CN1C(=O)[C@H](NC(=O)Nc2cccc(C(=O)NCCOCCOCCOCCC(=O)N[C@H](CCC(=O)O)C(=O)N[C@H](CCC(=O)O)C(=O)N[C@H](CCC(=O)O)C(=O)N[C@H](CCC(=O)O)C(=O)N[C@@H](CCCCNC(=O)C(CNCCN)CNCCN)C(=O)O)c2)CN(C2CCCCC2)c2ccccc21	Gastrin/cholecystokinin type B receptor (CCKBR, Homo sapiens, UniProt P32239)	calcium signal, antagonist		0.1 µM		~54%
COc1ccccc1CNC(=O)CCn1c(=O)[nH]c2ccsc2c1=O	Heat shock protein 90, N-terminal domain (Plasmodium falciparum, UniProt Q8IC05)	ligand displacement, FP		10 µM		69%
C=CCOC(=O)NCCCC[C@H](NC(=O)[C@H](Cc1ccc(O)cc1)NC(=O)CNC(=O)CNC(=O)[C@@H](NC(=O)[C@H](CO)NC(=O)[C@@H]1CCCN1C(=O)[C@H](C)NC(=O)[C@H](CO)NC(=O)[C@H](CCSC)NC(=O)[C@H](CCCNC(=N)N)NC(=O)[C@H](C)NC(=O)[C@H](C)NC(=O)[C@H](CCCCN)NC(C)=O)[C@@H](C)O)C(=O)NN	Histone-lysine N-methyltransferase EZH2 (EZH2, Homo sapiens, UniProt Q15910)	enzyme activity, inhibitor, radiometric		50 µM		53%
CC(=O)Nc1cc(COc2c(Cl)cc(CC(N)C(=O)O)cc2Cl)c2oc(-c3ccccc3)nc2c1 (stereo not drawn)	Sodium-coupled neutral amino acid transporter 3 (SLC38A3, Homo sapiens, UniProt Q99624)	glutamine uptake	Xenopus oocytes	1 and 10 µM, 30 min, added: L-[14C]glutamine 50 µM		no inhibition
O=C(O[C@H]1Cc2c(O)cc(O)cc2O[C@@H]1c1cc(O)c(O)c(O)c1)c1cc(O)c(O)c(O)c1	Si	enzyme activity, inhibitor	rat intestinal brush border vesicles	10 µM		77.5%
CCCCCCCCC=CCCCCCCCC(=O)OCC1OC(n2ccc(N)nc2=O)C(F)(F)C1O (stereo not drawn)	Cytidine deaminase (CDA, Homo sapiens, UniProt P32320)	enzyme activity, inhibitor		500 µM, added: gemcitabine 500 µM		47.2%
CCNC(=O)Nc1ccc(OC/C=C\COc2ccc(NC(=O)NCC)cc2)cc1	Transcription antitermination protein NusB, with NusE (nusB, Bacillus subtilis, UniProt P54520)	protein-protein interaction, inhibitor, competitive ELISA		25 µM, 15 min preincubation, 37 °C, added: 200 nM GST-NusE		72%
O=C(NCc1ccccc1)c1cc(S(=O)(=O)NCc2ccccc2)ccc1Cl	Ectonucleoside triphosphate diphosphohydrolase 1	enzyme activity, inhibitor, absorbance		100 µM		42%
CC(=O)c1cnc(N)nc1N1CC[C@H]1c1nn2ccc(Cl)c2c(=O)n1-c1ccccc1	Sodium channel protein type 5 subunit alpha (SCN5A, Homo sapiens, UniProt Q14524)	ion current, inhibitor	CHO	3 µM		< 10%
COc1ccc(Cl)cc1NC(=O)Nc1cc(C)nc2ccccc12	Trypanothione synthetase (Trypanosoma cruzi, UniProt Q9GT49)	enzyme activity, inhibitor, absorbance		25 µM		6.2%
COCCSc1nc(N)c2c(F)c(C#N)c(F)c(Cl)c2n1	CDC25B	enzyme activity, inhibitor, fluorescence		20 µg/mL		98.6%
Cc1ccc(Nc2nc(SCc3cn(Cc4ccccc4Cl)nn3)nc(-c3ccc(Cl)cc3)c2C#N)cc1	KDM1A	enzyme activity, inhibitor, fluorescence		1 µM		39.8%
O=c1cc(-c2ccccc2)oc2cc(OCc3cn([C@H]4O[C@H](CO)[C@@H](O)[C@H](O)[C@H]4O)nn3)cc(O)c12	Lysosomal alpha-glucosidase (GAA, Homo sapiens, UniProt P10253)	enzyme activity, inhibitor, fluorescence		1.43 mM, pH 4, lysate		96% and > 66%
C[Si]1(C[C@H](CN)CC(=O)O)CCCC1	Voltage-dependent calcium channel subunit alpha-2/delta-1 (Rattus norvegicus, UniProt P54290)	[3H]gabapentin binding	rat cerebral cortex membranes	0.39 µM, added: [3H]gabapentin 20 nM		10%
O=C(NC1CCCC1)c1cccc(S(=O)(=O)NC2CCCC2)c1	Ectonucleoside triphosphate diphosphohydrolase 1	enzyme activity, inhibitor, absorbance		100 µM		17%
CCn1c2ccccc2c2cc(CNCCCn3cnnc3)ccc21	D(3) dopamine receptor (DRD3, Homo sapiens, UniProt P35462)	cell-free assay, inhibitor		10 µM		63%

Some of these lines once more:
SMILES	target	assay	test system	setting	scale	inhibition
COC(=O)Nc1ccc2c(c1)c(Cc1ccc(C(=O)NS(=O)(=O)c3ccc(C(F)(F)F)cc3)cc1OC)cn2C	Tumor necrosis factor receptor superfamily member 1A	NF-κB reporter gene, luciferase reporter	HEK293 cells	up to 250 nM, added: TNF 10 ng/mL		~63%
N#Cc1c(F)c(F)c2nc(SCC3CCCO3)nc(N)c2c1F (stereo not drawn)	CDC25B	enzyme activity, inhibitor, fluorescence		20 µg/mL		99.9%
COc1ccc(NC(=O)c2cccc(S(=O)(=O)NC3CC3)c2)cc1	Ectonucleoside triphosphate diphosphohydrolase 1	enzyme activity, inhibitor, absorbance		100 µM		34%
COc1cc(-c2nc(SCc3cn(CC(=O)NC(=O)Nc4ccccn4)nn3)nc(Nc3ccc(C)cc3)c2C#N)cc(OC)c1OC	KDM1A	enzyme activity, inhibitor, fluorescence		1 µM		89.2%
O=C(O[C@H]1Cc2c(O)cc(O)cc2O[C@@H]1c1ccc(O)cc1)c1cc(O)c(O)c(O)c1	Si	enzyme activity, inhibitor	rat intestinal brush border vesicles	10 µM		88.1%
O=C1N[C@@H](CO)C[C@H](O)c2ccccc21 (relative stereo)	PARP3	enzyme activity, inhibitor		10 µM		0%
